Results gathered from unrelated publications.
A part holds a random share of what one study measured.

Study 1
Target: Prothrombin, mature alpha-thrombin (F2, Homo sapiens, UniProt P00734)
Method: aptamer microarray, sandwich
Form: DNA with 2'F-ANA
Sample: in vitro
Concentration: 200 nM
Setting: whole 15-mer aptamer, many near background
Added: Cy3 exosite-II aptamer, 400 nM
Direction: higher = stronger binding
Strand: GGTTGGTGTGGTTGG
Modification | mean fluorescence intensity [a.u.]
2'F-ANA at 1 4 5 8 10 12 13 15 | 45.1
2'F-ANA at 1 2 3 4 6 9 11 12 13 14 | 60.2
2'F-ANA at 5 6 12 13 14 15 | 49.2
2'F-ANA at 1 2 4 5 8 9 10 13 14 15 | 47.5
2'F-ANA at 1 3 4 5 8 9 10 11 14 | 56.3
2'F-ANA at 1 2 6 7 8 9 10 13 14 15 | 62.9

Study 2
Target: Interferon regulatory factor 7, full length, phosphomimetic (IRF7, Homo sapiens, UniProt Q92985, residues 1-503, S101K/S471D/S472D/S475D/S476D/S477D/S483D/S484D/S487D)
UniProt Q92985, sequence (whole entry, unmodified, looked up): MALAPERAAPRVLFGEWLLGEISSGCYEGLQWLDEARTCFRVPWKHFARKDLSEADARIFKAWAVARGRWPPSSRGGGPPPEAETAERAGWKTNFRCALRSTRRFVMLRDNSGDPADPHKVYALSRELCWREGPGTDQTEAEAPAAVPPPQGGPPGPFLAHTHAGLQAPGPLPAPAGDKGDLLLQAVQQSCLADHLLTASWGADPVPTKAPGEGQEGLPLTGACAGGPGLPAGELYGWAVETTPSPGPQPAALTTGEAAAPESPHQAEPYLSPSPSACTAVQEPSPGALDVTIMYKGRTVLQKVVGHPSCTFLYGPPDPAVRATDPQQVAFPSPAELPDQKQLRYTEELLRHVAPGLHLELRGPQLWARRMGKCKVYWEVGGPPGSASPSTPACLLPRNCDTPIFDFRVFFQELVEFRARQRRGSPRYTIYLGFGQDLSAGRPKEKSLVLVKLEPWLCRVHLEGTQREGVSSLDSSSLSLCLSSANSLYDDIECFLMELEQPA
Method: protein-binding microarray
Form: double-stranded DNA, one strand shown
Sample: in vitro
Concentration: 250 nM
Setting: 60-bp whole probe
Added: salmon DNA 0.4 mg/ml
Relative to: random background probes
Direction: higher = stronger binding
Shared flanks, not repeated: GCCTAGCAC … GTCTTGATTCGCTTGACGCTGCTG
Strand | log fluorescence [z-score]
ATAGGACTGGGGACTGGGTTAGTGCTA | -0.301
CAAACACTAATTTTCAATTCGTGCTAG | 0.453
ATAGATTTCAGTTCCGATTAGTGCTAG | 1.6
CACTGCATCTGATTTCTCAAAGTGCTA | 0.104
GACGGTATCGGGTAGCGGGACGTGCTA | 0.136

Study 3
Target: Histone acetyltransferase KAT6A, winged helix 2, GST fusion (KAT6A, Homo sapiens, UniProt Q92794, residues 85-181)
Method: protein binding microarray
Form: double-stranded DNA, one strand shown
Sample: in vitro
Concentration: not given
Setting: 8-mer, flanks averaged, mean of 2 arrays, mostly near background
Relative to: not given
Direction: higher = stronger binding
Residues (chain): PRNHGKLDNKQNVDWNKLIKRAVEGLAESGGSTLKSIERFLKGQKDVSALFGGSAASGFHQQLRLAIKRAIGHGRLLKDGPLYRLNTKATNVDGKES
Strand | E-score
TATTAATA | -0.145
CGACGCAC | 0.125
CTTCGACC | 0.116
ATCGACAC | -0.128
ACCAAAAC | -0.043
CAGTACTC | -0.184
GAGGGCAC | -0.107
ACGATCTC | -0.0985
CAGCCCTA | -0.0527
GGGTGGTA | -0.0623
GGACCCCC | 0.0484
ACCTAAAA | -0.165
ATGCGCCC | 0.188
CCACCCCA | -0.0417
GAATTGAA | -0.0704
TAATGGTA | 0.0509
AGGTACCA | -0.119

Study 4
Target: Sal-like protein 4, full length isoform B (SALL4, Homo sapiens, UniProt Q9UJQ4-2, residues 1-616)
Method: universal PBM
Form: double-stranded DNA, one strand shown
Sample: in vitro
Concentration: not given
Setting: 8-mer, flanks averaged, mean of replicates
Direction: higher = stronger binding
Target sequence (chain): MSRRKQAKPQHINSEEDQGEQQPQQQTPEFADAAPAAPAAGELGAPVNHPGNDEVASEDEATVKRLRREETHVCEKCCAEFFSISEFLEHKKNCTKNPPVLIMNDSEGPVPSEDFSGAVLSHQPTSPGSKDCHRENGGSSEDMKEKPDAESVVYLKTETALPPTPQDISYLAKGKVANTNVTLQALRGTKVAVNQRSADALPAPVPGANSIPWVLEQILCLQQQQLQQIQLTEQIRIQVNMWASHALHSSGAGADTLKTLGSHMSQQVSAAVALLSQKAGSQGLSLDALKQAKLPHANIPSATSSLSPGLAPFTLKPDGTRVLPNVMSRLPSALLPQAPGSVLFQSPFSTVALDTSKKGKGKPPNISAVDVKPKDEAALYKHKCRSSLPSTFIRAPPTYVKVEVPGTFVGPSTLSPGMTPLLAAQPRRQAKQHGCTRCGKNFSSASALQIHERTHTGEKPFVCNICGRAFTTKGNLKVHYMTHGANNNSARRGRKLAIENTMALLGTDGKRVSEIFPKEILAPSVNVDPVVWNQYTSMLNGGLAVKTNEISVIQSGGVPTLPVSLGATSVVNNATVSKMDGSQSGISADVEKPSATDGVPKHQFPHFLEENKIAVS
Strand | E-score
CAGCTCTA | -0.121
GAACAATC | 0.0519
CTCTCAGA | -0.0657
ATCCCCGG | -0.338
CAAAGCAC | 0.0153
CCCGATAC | -0.0602
AAGTTGAC | -0.0657

Further values, each from its own experiment
Substance | target | test | test system | setting | scale | measurement | value
PhoQ, residues 284 288 289 292 302 303 SNSSNI | PhoP, residues 12 14 15 18 19 NMSSL (Escherichia coli, UniProt P23836) | Sort-seq, refers to: YFP reporter | E. coli | PhoQ-PhoP variant library, added: 10 µM Mg2+ | relative to: high Mg2+ state, higher = stronger signaling | fold induction | 2.3

Some of these lines once more (study 2):
Strand | log fluorescence [z-score]
CAAACACTAATTTTCAATTCGTGCTAG | 0.453
ATAGATTTCAGTTCCGATTAGTGCTAG | 1.6
CACTGCATCTGATTTCTCAAAGTGCTA | 0.104
